Assay results gathered from unrelated publications.
Each line is one published result; not all experiments were run side by side.

Compound | assay | test system | conditions | how to read | quantity | value
C#CCN(C)Cc1ccccc1 | cytochrome c release, ELISA | BALB/cByJ female mouse liver mitochondria | 30 min | reference: alamethicin maximal release | EC20 | > 400 µM
CCN(CC)CCNC(=O)c1c(C)[nH]c(/C=C2\C(=O)Nc3ccc(F)cc32)c1C | – | human, plasma | oral, 20 mg/m2, day 21 | – | median trough plasma concentration | 37.4 ng/mL
C#Cc1cccc(Nc2ncnc3cc(OCCOC)c(OCCOC)cc23)c1 | – | Sprague-Dawley rat female, serum | oral, 42 mg/kg weekly | – | time to therapeutic level | ≤ 48 h
Cn1c(-c2ccc(C(N)=O)cc2F)nnc1C(C)(C)Oc1c(F)cc(Cl)cc1F | – | young Japanese adults, plasma | oral, 10 mg single dose, day 1, high-dose multiple-dose study | – | half-life range over subjects | 13.2 to 24.9 h
CC[C@@H]1C(=O)N(C)c2cnc(Nc3ccc(C(=O)N[C@H]4CC[C@H](N5CCN(CC6CC6)CC5)CC4)cc3OC)nc2N1C(C)C | – | human, plasma | intravenous infusion, 50 mg over 2 h, first infusion | – | median Tmax | 2 h
CCN1CCN(c2ccc(Nc3cc(N(C)C(=O)Nc4c(Cl)c(OC)cc(OC)c4Cl)ncn3)cc2)CC1 | LC-MS/MS | juvenile female Crl:WI(Han) rats, plasma | oral gavage, 1.0 mg/kg/day, postnatal day 17 | – | AUC(0-t) | 503 ng·h/mL
C[C@]12CC[C@@H]3c4ccc(O)cc4CC[C@H]3[C@@H]1C[C@@H](O)[C@@H]2O | GC-MS | breast cancer women on NSAI, serum | vaginal, 0.03 mg daily, 4 h, day 28 | – | minimum serum concentration | 0 ng/mL
CNC(=O)c1cc(Oc2ccc(NC(=O)Nc3ccc(Cl)c(C(F)(F)F)c3)c(F)c2)ccn1 | – | human | oral, dose not given, together with: esomeprazole 3 h before | reference: without esomeprazole | AUC(0-24h) change | -4.1%
Cc1cc(C)c2c(c1)[C@@H](N(Cc1cc(C(F)(F)F)cc(C(F)(F)F)c1)c1nnn(C)n1)CCCN2C[C@H]1CC[C@H](C(=O)O)CC1 | – | human, dyslipidemic patients, plasma | oral, 100 mg daily, monotherapy, geometric mean | – | AUC(0-tau) at steady state | 5900 ng·h/mL
O=C(O)[C@H](c1ccccc1Cl)N1CCc2sccc2C1 | HPLC-MS/MS | feline EDTA plasma | 72 h, -20 °C, storage stability | – | deviation from nominal | -1%
CC1(C)S[C@@H]2[C@H](NC(=O)[C@H](N)c3ccccc3)C(=O)N2[C@H]1C(=O)O | cytochrome c release, ELISA | BALB/cByJ female mouse liver mitochondria | 30 min | reference: alamethicin maximal release | EC20 | > 400 µM
COC(=O)C[C@](O)(CCCC(C)(C)O)C(=O)O[C@@H]1C(OC)=C[C@]23CCCN2CCc2cc4c(cc2[C@H]13)OCO4 | – | CD1 mouse, bone marrow | oral, 1 mg/kg, 24 h, below quantification limit 1.00 ng/mL | – | tissue concentration | not detected
C[C@@H](O)[C@H]1C(=O)N2C(C(=O)O)=C(S[C@@H]3CN[C@H](C(=O)N(C)C)C3)[C@H](C)[C@H]12 | – | pig, Danish Landrace, plasma | intravenous, 1000 mg over 10 min, 450 min dosing interval, together with: 0.25 µg/mL MIC | reference: dosing interval | time above MIC | 83%
O=c1ccc2ccc(O)c(O)c2o1 | – | human, fasted baseline, cerebrospinal fluid | – | – | mean concentration | 19.6 nM
Sc1ncnc2nc[nH]c12 | cytochrome c release, ELISA | BALB/cByJ female mouse liver mitochondria | 30 min | reference: alamethicin maximal release | EC20 | > 400 µM
CS(=O)(=O)n1cc2c(n1)CN([C@H]1CO[C@H](c3cc(F)ccc3F)[C@@H](N)C1)C2 | – | healthy male human, plasma | oral, 0.5 mg, fasted single dose | – | AUC(0-last) | 0.15 µM·h

Repeated from above:
Compound | assay | test system | conditions | how to read | quantity | value
C[C@]12CC[C@@H]3c4ccc(O)cc4CC[C@H]3[C@@H]1C[C@@H](O)[C@@H]2O | GC-MS | breast cancer women on NSAI, serum | vaginal, 0.03 mg daily, 4 h, day 28 | – | minimum serum concentration | 0 ng/mL
CNC(=O)c1cc(Oc2ccc(NC(=O)Nc3ccc(Cl)c(C(F)(F)F)c3)c(F)c2)ccn1 | – | human | oral, dose not given, together with: esomeprazole 3 h before | reference: without esomeprazole | AUC(0-24h) change | -4.1%
